Published values from different studies.
A part holds a random share of what one study measured. Substitutions count along the parent as printed.

Block 1
Target: Sal-like protein 4, full length isoform B (SALL4, Homo sapiens, UniProt Q9UJQ4-2, residues 1-616)
Method: universal PBM
Molecule type: double-stranded DNA, one strand shown
Sample: in vitro
Concentration: not given
Setting: 8-mer, flanks averaged, mean of replicates
Reading: higher = stronger binding
| Strand | E-score |
| --- | --- |
| ATACAGCG | 0.0612 |
| TACCAAGA | 0.137 |
| CGACCGTA | -0.246 |
| ACTTGCGA | -0.0566 |
| AGTACCCG | -0.135 |
| ACTACGCC | -0.172 |
| ACGTACTC | 0.0228 |
| GGTTAACA | 0.199 |

Block 2
Target: CCNA1, cyclin fold, Cln2 fusion (human)
Method: yeast growth competition, sequencing
Sample: yeast
Setting: weak parent motif
Reference: not given
Reading: higher = stronger binding
Parent: PKMYT1 docking peptide (human); SFEPRNLLSLFED; partner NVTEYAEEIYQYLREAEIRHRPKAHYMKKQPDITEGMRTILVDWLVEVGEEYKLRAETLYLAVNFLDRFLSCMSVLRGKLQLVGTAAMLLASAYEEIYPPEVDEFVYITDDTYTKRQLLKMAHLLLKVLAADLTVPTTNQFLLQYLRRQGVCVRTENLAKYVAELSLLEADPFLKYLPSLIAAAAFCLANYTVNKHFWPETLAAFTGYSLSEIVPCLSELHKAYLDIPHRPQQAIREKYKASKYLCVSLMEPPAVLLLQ
| Change | normalised enrichment score |
| --- | --- |
| L10P | 0.216 |
| L8E | -1.12 |
| S9T | 0.156 |
| L7P | 0.119 |
| S1V | 0.408 |

Block 3
Target: RNA binding protein fox-1 homolog 2, RRM domain, GST-SBP tag (RBFOX2, Homo sapiens, UniProt O43251-10, residues 100-194)
Method: RNA Bind-n-Seq
Molecule type: RNA
Sample: in vitro
Concentration: 365 nM
Setting: natural RNA segment, single round, ends assumed
Reference: no-protein control
Reading: higher = stronger binding
Construct (chain): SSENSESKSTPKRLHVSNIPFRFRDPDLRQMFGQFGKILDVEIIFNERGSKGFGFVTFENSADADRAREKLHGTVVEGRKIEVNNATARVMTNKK
| Strand | RBNS enrichment (R) |
| --- | --- |
| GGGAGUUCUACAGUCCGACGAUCCUGAAGAUUGUCCUGGCCGCGACCUGGACCUCCAUGAGUGGAGGGAAGAGUGAUCUAUGUCUCUUCCCCCAGCAGCUCGGACCACUCCCAGCCCCCCAUCCCCCCGUUCCUGGAAUUCUCGGGUGCCAA | 0.411 |
| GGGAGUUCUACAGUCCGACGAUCAAACUUUAAUUUUGAAGAAGAAUAUAUUGACUUACUAAGGGGAAGUAUUCUCAUUUUGAGUGACAUUCAGAGGUUCACGUUUGCUUCUCUGCCGAGCAAAGGGAACGUCCUGGAAUUCUCGGGUGCCAA | 0.435 |
| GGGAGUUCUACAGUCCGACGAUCUCCUUGGAACUGGGUGUUGGUGUCCAUGGAACUUCCUCUCUGUAUCUCAGGUCAGUAGGCGCAGAAACGCCUCAUGAUGAAGAUUCUUGAGCCCCAUUUCCAAGACCCCUUGGAAUUCUCGGGUGCCAA | 0.266 |
| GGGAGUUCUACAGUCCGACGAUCAGGUGUGUUACUUUGUUGAUCAAUAACUUUGGAACAAUUAUGGAUCAAUUCUAUGGUCACUCUGAAUUUUCAUGUCAUUAAUCACAUAAAAAUUGAUAAUACCUCAUUCUUGGAAUUCUCGGGUGCCAA | 0.396 |
| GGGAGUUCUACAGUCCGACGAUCCUUUGUUCAUUCUAGCCACGGGGAUGAAAGGGAUCUUUUGCAUUGCAGAGAUUUUAUAUAUAUUUUGUUUGUAAUGAGCCAUUCUCAAUAAACAUUAUUCUCACUGCAAAUGGAAUUCUCGGGUGCCAA | 0.753 |
| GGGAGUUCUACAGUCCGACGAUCCCGAGUGACGGUUUCCCUUGCACUAGGCUGAACCUAUAGUAUAGAAAUAUUAUCUAUUUUAUUACCUUGAAUAUUUAAUAUUUUUCACUGGGAGGUUUGAAGCUUACAAAUGGAAUUCUCGGGUGCCAA | 0.43 |
| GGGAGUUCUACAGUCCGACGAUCAAACUUUUAAUUAAGUUUUGUUUAUAAUAAAAAUAUAAAUGGAUUUGAAAGUUUCCAUUUUUUAAAGUUACCCUCGUUUUCAAAGGUAUUUUCUAAACAGAUCUUUAAUGUGGAAUUCUCGGGUGCCAA | 0.654 |
| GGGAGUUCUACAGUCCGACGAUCGCGUUUUCUCUGUCCUGCUGCUUCUUUUGGCCUCCUCGUUUUCCUUCUCUUUUUCGACAAUGGUAGACAUGAAUGAGAUAUUUAAAGUUCAUUGGAAAUCUUCUUCCCUAUGGAAUUCUCGGGUGCCAA | 0.291 |

Further values, each from its own experiment
| Molecule | target | assay | test system | setting | scale | measurement | value |
| --- | --- | --- | --- | --- | --- | --- | --- |
| PhoQ, residues 284 288 289 292 302 303 SNSSNI | PhoP, residues 12 14 15 18 19 AGCRL (Escherichia coli, UniProt P23836) | Sort-seq, item: YFP reporter | E. coli | PhoQ-PhoP variant library, added: 10 µM Mg2+ | reference: high Mg2+ state, higher = stronger signaling | fold induction | 6.24 |

For quick reference, copied from above (further values, each from its own experiment):
| Molecule | target | assay | test system | setting | scale | measurement | value |
| --- | --- | --- | --- | --- | --- | --- | --- |
| PhoQ, residues 284 288 289 292 302 303 SNSSNI | PhoP, residues 12 14 15 18 19 AGCRL (Escherichia coli, UniProt P23836) | Sort-seq, item: YFP reporter | E. coli | PhoQ-PhoP variant library, added: 10 µM Mg2+ | reference: high Mg2+ state, higher = stronger signaling | fold induction | 6.24 |
